Experimental data pooled from the literature.
Each numbered part is a random draw from the data of one study; scales do not carry over between parts. Values joined by “and” are separate records of one study, mostly repeats; a detail may differ.

Series 1 — Compound: CCOc1ccc(Nc2c3c(nc4ccccc24)CCC3)cc1
| cell line | technique | tested at | time | notes | cytotoxicity |
| --- | --- | --- | --- | --- | --- |
| HepG2 | resazurin | 33.32 µM | 48 h |  | 87% and 89% |
| J774.1 | resazurin | 0.0166 µM |  |  | -4% |
| J774.1 | resazurin | 66.66 µM | 64 h |  | 100% |
| HEK293 | resazurin | 0.00332 µM |  | 10% serum | 2% and -4% |
| PMA-differentiated THP-1 macrophages |  | 0.02 µM | 64 h |  | -1% and 3% |
| PMA-differentiated THP-1 macrophages |  | 0.008 µM | 64 h |  | 1% and 0% |
| RAW264.7 | resazurin | 66.66 µM | 64 h |  | 100% |
| PMA-differentiated THP-1 macrophages |  | 4 µM | 64 h |  | 12% and 8% |

Series 2 — effect on: enzyme activity; action: inhibitor; tested at: 0.5 µM; reference: control
Target: Cyclin-dependent kinase 6, with cyclin D1 (CDK6, Homo sapiens, UniProt Q00534)
Chain of UniProt Q00534 (whole entry, looked up): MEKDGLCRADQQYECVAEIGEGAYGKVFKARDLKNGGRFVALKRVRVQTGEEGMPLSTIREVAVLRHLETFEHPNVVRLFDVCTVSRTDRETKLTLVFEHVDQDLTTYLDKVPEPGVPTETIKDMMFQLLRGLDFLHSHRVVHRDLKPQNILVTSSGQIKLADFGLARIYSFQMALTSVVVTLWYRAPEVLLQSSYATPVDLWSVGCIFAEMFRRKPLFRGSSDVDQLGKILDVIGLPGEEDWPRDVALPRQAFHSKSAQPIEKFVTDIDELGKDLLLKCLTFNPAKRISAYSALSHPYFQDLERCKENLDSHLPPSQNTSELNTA
| SMILES | remaining activity [%] |
| --- | --- |
| CC(C)(C)c1nc2c3cc[nH]c(=O)c3c3cc(F)ccc3c2[nH]1 | 87.7 |
| CCCCc1c(-c2ccc(O)cc2)[nH]c2nccnc12 | 61.6 |
| O=c1c(-c2ccc(F)cc2)c(-c2ccncc2)[nH]n1-c1ccc(Cl)cc1 | 92.3 |
| COc1cc2c(Nc3ccc(Br)cc3F)ncnc2cc1OCC1CCN(C)CC1 | 98.7 |
| O=C1c2ccccc2-c2nc3nnnn3nc21 | 59.6 |
| N#CC(c1ccnc(NCCc2cccnc2)n1)c1nc2ccccc2s1 (centres unmarked) | 89.7 |
| O=C(c1ccccc1)c1ccc(N2CCOCC2)cc1O | 97.8 |
| CC(C)n1cnc2c(Nc3cccc(Cl)c3)nc(NCCO)nc21 | 95.5 |
| CCN(CC)CCCCN1c2ccccc2Oc2ccc(Cl)cc21 | 98 |
| c1cc(-c2cnn3cc(-c4ccc(OCCN5CCCCC5)cc4)cnc23)ccn1 | 21.2 |
| FC(F)(F)c1ccc(/C=C/c2nc(COc3ccc(CCCCn4ccnn4)cc3)co2)cc1 | 95.4 |
| NC(=O)c1ccc(-c2nc(-c3ccc4c(c3)OCCO4)c(-c3ccccn3)[nH]2)cc1 | 106 |

Series 3 — cell line: HaCaT; tested at: 100 µM; time: 18 h
| SMILES | viability [%] |
| --- | --- |
| CC(=O)O[C@]1(C(C)=O)CC[C@H]2[C@@H]3C=C(Cl)C4=CC(=O)CC[C@]4(C)[C@H]3CC[C@@]21C | 53.3 |
| [H]/N=C(/N)N[C@H]1[C@H](O)[C@@H](O)[C@H](O[C@@H]2O[C@@H](C)[C@](O)(C=O)[C@H]2O[C@@H]2O[C@@H](CO)[C@H](O)[C@@H](O)[C@@H]2NC)[C@@H](N/C(N)=N\[H])[C@@H]1O | 111 |
| Nc1ccccc1S(N)(=O)=O | 99.9 |
| COc1cc2ccc(=O)oc2c(O)c1O | 84.9 |
| CN(C)CCc1c[nH]c2ccc(CS(=O)(=O)N3CCCC3)cc12 | 88.4 |
| NC[C@H]1O[C@H](O[C@H]2[C@H](O)[C@@H](O[C@H]3O[C@H](CO)[C@@H](O)[C@H](N)[C@H]3O)[C@H](N)C[C@@H]2N)[C@H](O)[C@@H](O)[C@@H]1O | 111 |
| CCN(CC)CCNC(=O)c1cc(Br)c(N)cc1OC | 111 |
| O=c1ccc2ccc(OCCCCN3CCN(c4cccc5sccc45)CC3)cc2[nH]1 | 23.5 |

Series 4 — effect on: ligand displacement; tested at: 10 µM
Target: Sigma intracellular receptor 2 (TMEM97, Homo sapiens, UniProt Q5BJF2)
Chain of UniProt Q5BJF2 (whole entry, looked up): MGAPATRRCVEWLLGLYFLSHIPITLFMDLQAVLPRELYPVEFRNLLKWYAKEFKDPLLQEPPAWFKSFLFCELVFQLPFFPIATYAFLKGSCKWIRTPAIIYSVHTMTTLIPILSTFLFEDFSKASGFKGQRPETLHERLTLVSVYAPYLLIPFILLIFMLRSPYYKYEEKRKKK
| SMILES | inhibition |
| --- | --- |
| COc1ccc2cc(OCC3(C(=O)O)CN(C(=O)c4ccc(F)cc4)C3)ccc2c1 | -1.29% |
| CC(=O)N1CCC(c2ccc(C(=O)NC3=NCCN3)cc2C(F)(F)F)CC1 | -0.12% |
| O=C(N[C@H]1CCCCC/C=C\C2C[C@@]2(C(=O)O)NC(=O)[C@@H]2C[C@@H](Oc3ccncc3)CN2C1=O)OC1CCCC1 (some centres unmarked) | 18.5% |
| CN1CCN(c2cnc3c(C4CCN(C(=O)c5ccc(OC(F)(F)F)cc5N)CC4)ncnc3c2)CC1 | 30.9% |
| COCCOc1nc(-c2ccc(Cl)nc2)nc2c1CN(C(=O)c1ncn3ccccc13)CC2 | 55.6% |
| Nc1nc(NCc2ccccc2)nc(-c2ccccc2CO)n1 | -27.6% |
| Cc1noc([C@H]2C[C@@H](c3ccc(C(F)(F)F)cc3)CN(C(=O)N3CCS(=O)(=O)C3)C2)n1 | 42.4% |
| O=c1nc(-c2ccccn2)sc2ccccc12 | 12.5% |
| Cc1ccccc1Oc1cc(-n2c(=O)cc(C(F)(F)F)[nH]c2=O)c2ccccc2c1Cl | -7.5% |
| CO[C@H]1CC[C@H](CNc2ccc(S(=O)(=O)NC(=O)c3ccc(N4CCN(CC5=C(c6ccc(Cl)cc6)CC(C)(C)CC5)CC4)cc3Oc3cnc4[nH]ccc4c3)cc2[N+](=O)[O-])CC1 | 60.7% |
| Nc1cnc(N2CCc3cc(S(=O)(=O)Nc4c(F)cc(Cl)cc4F)cc(N4CCCC4=O)c32)nc1 | -12% |
| CC1=C(C#N)C(c2ccc3[nH]nc(C)c3c2)C(C#N)=C(C)N1 | 23.9% |
| CN(C)C(=O)c1sc2nc(N3CCC(S(C)(=O)=O)CC3)cc(C(F)(F)F)c2c1N | 70.6% |
| C[C@@H](c1cccc(C#N)c1)n1cc(Cl)cc(C(N)=O)c1=N | 20.7% |
| CCc1ccccc1C(=O)Nc1n[nH]c2c(C)c(F)c(C3C(C#N)=C(C)N(C)C(C)=C3C#N)cc12 | 78.3% |
| Cn1cc(Cl)c2c(Oc3c(F)cc(Nc4cc(Cl)nc(N)n4)cc3F)ccnc21 | -39.7% |
| C[C@H](c1ccc(F)cc1)N(Cc1cccc(C(=O)O)c1)C(=O)c1cnc2ccccc2c1 | 3.36% |
| C[C@H](c1ccnc(Nc2nc3ccc(-c4cc(N(C)C)ncn4)cc3[nH]2)c1)N1CCN(C(=O)CC(F)(F)F)CC1 | 54.1% |
| O=C(Nc1ccc(Oc2ccc(F)cc2)cc1)N1CCc2ncccc2[C@H]1c1ccc(F)cc1 | 80.8% |
| NS(=O)(=O)c1cc(NC(=O)Cc2ccccc2)ccc1Oc1cccc(Cl)c1 | 59.5% |
| c1ccc(N2CCN(Cc3nc4ccccc4[nH]3)CC2)nc1 | -32.4% |
| CNC(=N)NCCC[C@H](NC(=O)[C@H](CC(C)C)NC(=O)NNC(=O)[C@H](Cc1ccccc1)NC(=O)[C@H](CO)NC(=O)[C@H](CC(N)=O)NC(=O)[C@@H](Cc1ccncc1)NC(=O)[C@H](N)Cc1ccc(O)cc1)C(=O)N[C@@H](Cc1ccccc1)C(N)=O | -5.31% |
| CN1CCN(c2ccnc(NCCc3ccccc3)n2)CC1 | 77.2% |
| CS(=O)(=O)N1CCCC(NC(=O)[C@H](CCC2CCCCC2)NC(=O)c2ccc(CNC(=O)c3cnc4ccccn34)cc2)C1 (some centres unmarked) | 32% |
| COc1cc(C(=O)O)ncc1C#Cc1ccccc1NS(=O)(=O)c1cccc2c(N(C)C)ccnc12 | 25% |

Repeated from above (series 2):
| SMILES | remaining activity [%] |
| --- | --- |
| CC(C)n1cnc2c(Nc3cccc(Cl)c3)nc(NCCO)nc21 | 95.5 |
| O=c1c(-c2ccc(F)cc2)c(-c2ccncc2)[nH]n1-c1ccc(Cl)cc1 | 92.3 |
| N#CC(c1ccnc(NCCc2cccnc2)n1)c1nc2ccccc2s1 (centres unmarked) | 89.7 |
| COc1cc2c(Nc3ccc(Br)cc3F)ncnc2cc1OCC1CCN(C)CC1 | 98.7 |
| FC(F)(F)c1ccc(/C=C/c2nc(COc3ccc(CCCCn4ccnn4)cc3)co2)cc1 | 95.4 |
| NC(=O)c1ccc(-c2nc(-c3ccc4c(c3)OCCO4)c(-c3ccccn3)[nH]2)cc1 | 106 |
| O=C1c2ccccc2-c2nc3nnnn3nc21 | 59.6 |
| O=C(c1ccccc1)c1ccc(N2CCOCC2)cc1O | 97.8 |
